# Published values gathered from unrelated publications.
# Lines come from different studies, so protocols differ. ± gives the spread as reported.
Compound,organism,test,test system,setting,IC50 [µM]
O=C(Oc1cc(OC(=O)c2cc(O)c(O)c(O)c2)c2ccccc2c1)c1cc(O)c(O)c(O)c1,human alphaherpesvirus 2,"viral replication, RT-qPCR","HeLa, acyclovir-resistant",,1.03 ± 0.3
Cc1cc(N2CCC(C#N)(C3(C)CC3)C2=O)cc(C(=O)NCc2cc(F)cc(-c3cnn(C)c3)c2)n1 (racemic),Plasmodium falciparum,parasite growth,compound-resistant Dd2-B2 bulk 1_Bulk_10e5_A2,,0.073
C=CC(=O)N1CC/C(=C\c2ccc(F)c([N+](=O)[O-])c2)C(=O)/C(=C/c2ccc(F)c([N+](=O)[O-])c2)C1,human alphaherpesvirus 1,,"K26 GFP, 3D adult human skin air-liquid interface",48 h,0.24
NCCC[C@@H]1NC(=O)[C@@H](CCCN)NC(=O)[C@H](Cc2ccccc2)NC(=O)[C@@H](Cc2ccc(F)c(F)c2)NC(=O)[C@H](Cc2ccccc2)NC(=O)[C@@H](CCCN)NC1=O,Balamuthia mandrillaris,"parasite growth, ATP luminescence",,,13.5
COC(=O)C1=CO[C@@H](C)[C@@H]2Cn3ccc4c5ccccc5nc-4c3C[C@H]12,Plasmodium falciparum,growth,"C2B, atovaquone-resistant",72 h,0.113 ± 0.029
CC[C@H](C)[C@H](NC(=O)[C@H](Cc1c[nH]c2ccccc12)NC(=O)c1ccccc1)C(=O)N[C@H](C(=O)N[C@@H](Cc1ccc(O)cc1)C(=O)N[C@@H](CCCCN)C(=O)N[C@@H](Cc1c[nH]c2ccccc12)C(=O)N1CCC[C@@H]1C(=O)N[C@@H](CCCNC(=N)N)C(=O)N[C@@H](CCCCN)C(=O)N[C@@H](CCCCN)C(=O)N[C@H](C(=O)N[C@@H](CCCNC(=N)N)C(=O)N[C@@H](Cc1ccc(O)cc1)C(=O)N[C@@H](Cc1c[nH]c2ccccc12)C(=O)N[C@H](C(=O)NCC(=O)N1CCC[C@H]1C(N)=O)[C@@H](C)O)C(C)C)C(C)C,Corynebacterium glutamicum,growth,ATCC 13032,,0.13
CC(C)C[C@H](NC(=O)[C@H](CC(=O)O)NC(=O)[C@@H](NC(=O)[C@H](CCC(=O)O)NC(=O)[C@H](CCCCN)NC(=O)[C@H](Cc1ccc(O)cc1)NC(=O)[C@H](CCCCN)NC(=O)[C@H](Cc1c[nH]cn1)NC(=O)CNC(=O)CN)[C@@H](C)O)C(N)=O,hepatitis C virus,"viral replication, luciferase reporter",Huh-7 ET replicon,72 h,2.17
CC[C@H](C)[C@H](NC(=O)[C@H](CC(C)C)NC(=O)[C@H](CO)NC(=O)[C@H](Cc1c[nH]cn1)NC(=O)[C@@H](NC(=O)[C@H](CC(C)C)NC(=O)[C@H](CO)NC(=O)[C@@H](NC(=O)[C@@H](N)Cc1ccc(O)cc1)[C@@H](C)O)[C@@H](C)CC)C(=O)N[C@@H](CCC(=O)O)C(=O)N[C@@H](CCC(=O)O)C(=O)N[C@@H](CO)C(=O)N[C@@H](CCC(N)=O)C(=O)N[C@@H](CC(N)=O)C(=O)N[C@@H](CCC(N)=O)C(=O)N[C@@H](CCC(N)=O)C(=O)N[C@@H](CCC(=O)O)C(=O)N[C@@H](CCCCN)C(=O)N[C@@H](CC(N)=O)C(=O)N[C@@H](CCCCN)C(N)=O,HIV-1 HXB2,"viral infection, luciferase reporter",TZM-bl,,2.21 ± 0.507
CC[C@H](C)[C@H](NC(=O)[C@H](Cc1c[nH]c2ccccc12)NC(=O)c1ccccc1)C(=O)N[C@@H](CCCNC(=N)N)C(=O)N[C@@H](Cc1ccc(O)cc1)C(=O)N[C@@H](CCCCN)C(=O)N[C@@H](Cc1c[nH]c2ccccc12)C(=O)N[C@H](CCCNC(=N)N)C(=O)N[C@@H](CCCNC(=N)N)C(=O)N[C@@H](CCCCN)C(=O)N[C@@H](CCCCN)C(=O)N[C@H](C(=O)N[C@@H](CCCNC(=N)N)C(=O)N[C@@H](Cc1ccc(O)cc1)C(=O)N[C@@H](Cc1c[nH]c2ccccc12)C(=O)N[C@H](C(=O)NCC(=O)N1CCC[C@H]1C(N)=O)[C@@H](C)O)C(C)C,Corynebacterium glutamicum,growth,ATCC 13032,,0.06
CCCCCCCCCCCCCCC[C@@H](O)[C@H](CO)NC(=O)N[C@@H](CC(C)C)C(=O)N[C@@H](CCC(N)=O)C(=O)N[C@@H](C)C(=O)N[C@@H](CCCNC(=N)N)C(=O)N[C@H](C(=O)N[C@@H](CC(C)C)C(=O)N[C@@H](C)C(=O)N[C@H](C(=O)N[C@@H](CCC(=O)O)C(=O)N[C@@H](CCCNC(=N)N)C(=O)N[C@@H](Cc1ccc(O)cc1)C(=O)N[C@@H](CC(C)C)C(=O)N[C@@H](CCCCN)C(=O)N[C@@H](CC(=O)O)C(=O)N[C@@H](CCC(N)=O)C(=O)N[C@@H](CCC(N)=O)C(=O)N[C@@H](CC(C)C)C(N)=O)C(C)C)[C@@H](C)CC,HIV-1 HXB2,"viral infection, luciferase reporter",TZM-bl,,0.886 ± 0.102
CC[C@H](C)[C@H](NC(=O)[C@H](Cc1c[nH]c2ccccc12)NC(=O)c1ccccc1)C(=O)N[C@@H](CCCNC(=N)N)C(=O)N[C@@H](Cc1ccc(O)cc1)C(=O)N[C@@H](CCCCN)C(=O)N[C@@H](Cc1c[nH]c2ccccc12)C(=O)N1CCC[C@@H]1C(=O)N[C@@H](CCCNC(=N)N)C(=O)N[C@@H](CCCCN)C(=O)N[C@H](C(=O)N[C@H](C(=O)N[C@@H](CCCNC(=N)N)C(=O)N[C@@H](Cc1ccc(O)cc1)C(=O)N[C@@H](Cc1c[nH]c2ccccc12)C(=O)N[C@H](C(=O)NCC(=O)N1CCC[C@H]1C(N)=O)[C@@H](C)O)C(C)C)C(C)C,Corynebacterium glutamicum,growth,ATCC 13032,,0.01

# Excerpt of the above:
Compound,organism,test,test system,setting,IC50 [µM]
NCCC[C@@H]1NC(=O)[C@@H](CCCN)NC(=O)[C@H](Cc2ccccc2)NC(=O)[C@@H](Cc2ccc(F)c(F)c2)NC(=O)[C@H](Cc2ccccc2)NC(=O)[C@@H](CCCN)NC1=O,Balamuthia mandrillaris,"parasite growth, ATP luminescence",,,13.5
